Assay results from different studies.
Protocols differ between the studies behind these lines. Numbers after ± are the reported error.
UniProt Q8NB78, sequence (whole entry, looked up): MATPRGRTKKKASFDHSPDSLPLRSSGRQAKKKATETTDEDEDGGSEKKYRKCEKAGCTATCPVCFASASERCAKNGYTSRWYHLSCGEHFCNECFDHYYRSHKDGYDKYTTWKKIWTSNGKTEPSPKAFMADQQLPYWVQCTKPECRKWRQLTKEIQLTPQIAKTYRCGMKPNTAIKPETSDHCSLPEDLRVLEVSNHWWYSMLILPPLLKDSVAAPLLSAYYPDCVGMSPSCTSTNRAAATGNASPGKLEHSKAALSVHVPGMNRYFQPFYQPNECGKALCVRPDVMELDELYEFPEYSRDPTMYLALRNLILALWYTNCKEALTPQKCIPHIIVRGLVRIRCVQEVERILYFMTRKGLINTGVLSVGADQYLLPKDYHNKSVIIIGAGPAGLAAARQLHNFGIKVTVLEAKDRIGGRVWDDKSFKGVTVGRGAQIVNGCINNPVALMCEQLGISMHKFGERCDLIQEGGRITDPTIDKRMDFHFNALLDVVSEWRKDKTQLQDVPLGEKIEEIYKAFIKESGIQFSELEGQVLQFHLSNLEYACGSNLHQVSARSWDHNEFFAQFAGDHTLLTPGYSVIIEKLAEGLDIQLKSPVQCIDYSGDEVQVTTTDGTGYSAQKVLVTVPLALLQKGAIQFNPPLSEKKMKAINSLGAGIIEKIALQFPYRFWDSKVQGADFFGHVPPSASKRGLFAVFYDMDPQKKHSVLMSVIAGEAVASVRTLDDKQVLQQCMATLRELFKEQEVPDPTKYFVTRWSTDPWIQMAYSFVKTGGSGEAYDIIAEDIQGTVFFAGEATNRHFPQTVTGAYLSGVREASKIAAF
UniProt O75469, sequence (whole entry, looked up): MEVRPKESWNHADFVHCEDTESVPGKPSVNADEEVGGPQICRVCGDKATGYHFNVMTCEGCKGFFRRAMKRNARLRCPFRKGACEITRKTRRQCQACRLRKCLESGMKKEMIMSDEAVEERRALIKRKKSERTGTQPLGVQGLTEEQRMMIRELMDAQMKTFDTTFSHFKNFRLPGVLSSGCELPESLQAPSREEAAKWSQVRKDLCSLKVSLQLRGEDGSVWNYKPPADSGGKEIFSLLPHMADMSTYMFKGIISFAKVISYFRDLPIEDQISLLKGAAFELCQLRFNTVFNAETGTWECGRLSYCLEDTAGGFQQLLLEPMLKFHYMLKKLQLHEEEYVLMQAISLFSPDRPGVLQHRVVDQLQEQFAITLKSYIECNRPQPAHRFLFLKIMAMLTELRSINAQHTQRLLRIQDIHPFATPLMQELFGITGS

For CC[C@H](C)[C@H](NC(=O)[C@H](C)NC(=O)CNC(=O)[C@H](Cc1ccccc1)NC(=O)[C@H](CC(N)=O)NC(=O)[C@H](CC(N)=O)NC(=O)[C@H](CO)NC(=O)[C@H](CO)NC(=O)[C@H](Cc1c[nH]cn1)NC(=O)[C@@H](NC(=O)[C@H](CC(C)C)NC(=O)[C@H](Cc1ccccc1)NC(=O)[C@H](CC(N)=O)NC(=O)[C@H](C)NC(=O)[C@H](CC(C)C)NC(=O)[C@H](CCCNC(=N)N)NC(=O)[C@H](CCC(N)=O)NC(=O)[C@@H](NC(=O)[C@H](C)NC(=O)[C@@H]1CSSC[C@H](NC(=O)[C@@H](N)CCCCN)C(=O)N[C@@H](CC(N)=O)C(=O)N[C@@H]([C@@H](C)O)C(=O)N[C@@H](C)C(=O)N[C@@H]([C@@H](C)O)C(=O)N1)[C@@H](C)O)C(C)C)C(=O)N[C@@H](CC(C)C)C(=O)N[C@@H](CO)C(=O)N[C@@H](CO)C(=O)N[C@H](C(=O)N[C@@H](CC(N)=O)C(=O)N[C@H](C(=O)NCC(=O)N[C@@H](CO)C(=O)N[C@@H](CC(N)=O)C(=O)N[C@H](C(=O)N[C@@H](Cc1ccc(O)cc1)C(N)=O)[C@@H](C)O)C(C)C)[C@@H](C)O, the viability was 54 ± 5% (INS-1; AlamarBlue; 21 µM, 48 h; relative to: medium alone).
O=C(N[C@@H](Cn1cncn1)c1ccc(F)cc1F)c1ccc(-c2nnc(-c3ccccc3)o2)cc1 gave a viability of 101 ± 1.4% (NIH/3T3; BrdU incorporation; 50 µM, 24 h; relative to: DMSO).
COc1cc2c(cc1O)[C@]1(O)C(=O)c3c(O)cc4c(c3O[C@@H]1CO2)C=CC(C)(C)O4 has a viability of 108% (A549; cell growth or viability, MTT; 12.5 µg/mL).
Oc1cc2nc(c1)CNCc1cc(O)cc(n1)CNC2 has a viability of over 90% (HT-22; WST-8; 100 µM, 24 h pretreatment, with: H2O2 600 µM for 4 h; relative to: untreated).
For CC(=O)c1c(C)c2cnc(Nc3ccc(N4CCNCC4)cn3)nc2n(C2CCCC2)c1=O, viability read “not toxic” (mAb-expressing recombinant CHO; 5 to 10 µM, 5 days; relative to: untreated).
The viability of Cc1nc(C)c(C=[N+]([O-])C(C)(C)C)nc1C is reported as 98.1 ± 1.46% (Sprague-Dawley rat primary midbrain neurons; 100 µM, 24 h; relative to: untreated).
The viability of CNc1ccc(-c2nc3ccc(O)c(CN4CCN(C)CCN(C)CC4)c3s2)cc1 is reported as over 80% (Neuro2A; Alamar Blue; up to 10 µM, 40 h; relative to: 1% DMSO vehicle).
For CC(C)=CCc1cc(-c2coc3cc(O)c(CC=C(C)C)c(O)c3c2=O)ccc1O, the viability was 5.09% (A549; cell growth or viability, MTT; 100 µg/mL).
The viability of COc1ccc([C@@H]2CC(=O)c3c(O)cc(O[C@@H]4O[C@H](CO[C@@H]5O[C@@H](C)[C@H](O)[C@@H](O)[C@H]5O)[C@@H](O[C@H]5O[C@H](CO)[C@@H](O)[C@H](O)[C@H]5O)[C@H](O)[C@H]4O)cc3O2)cc1O is reported as 75.6% (MRC5; cell growth or viability, MTS; 50 µg/mL, 24 h).
COCCNCC(=O)N(CCCCN)CC(=O)N(CC(=O)N(CC(=O)N(CCCCN)CC(=O)N[C@@H](CCCCN)C(=O)N[C@H](CCCCN)C(=O)N[C@@H](CCSC)C(=O)NCCCC[C@H](NC(=O)[C@H](CCSC)NC(=O)[C@@H](CCCCN)NC(=O)[C@H](CCCCN)NC(=O)CN(CCCCN)C(=O)CN(C(=O)CN(Cc1ccc2c(c1)OCO2)C(=O)CN(CCCCN)C(=O)CNCCOC)[C@H](C)c1ccccc1)C(N)=O)[C@H](C)c1ccccc1)Cc1ccc2c(c1)OCO2: viability “no effect” (HBEC3KT; MTS; concentration not given).
COc1ccc(CCCN[C@H]2CCC[C@@H]2CN[C@H]2CCC[C@@H]2CNCCCCN[C@@H]2CCC[C@H]2CN)cc1 has a Ki of 4.5 µM (KDM1B (Homo sapiens, UniProt Q8NB78); enzyme activity, inhibitor).
The fold activation of CCC(=O)N(C)c1ccc(Cl)c(Cl)c1 is reported as 1.21 fold (NR1I2 (Homo sapiens, UniProt O75469); reporter gene, agonist; 0.32 µM; relative to: vehicle).
[64Cu+2].c1cnc(CNCc2ccc(CN3CCCN4CCNCCCN(CC4)CC3)cc2)nc1 has a tumour-to-blood ratio of 28.1 ± 4.78 (CXCR4; NOD/SCID mouse, U87 and U87-stb-CXCR4 xenografts; iv, 90 min, no blocking dose; relative to: U87-stb-CXCR4 tumour over blood).
The non-fluorescent cells of CCCN(CC(=O)N(CCC)CC(=O)N(CCC)CC(=O)N(CCC)CC(=O)N(CC(=O)N(CCC)CC(=O)N(CCC)CC(=O)N(CCC)CC(=O)N(CCC)CC(=O)N(CC(N)=O)Cc1cn(CCCNC(=O)CCCOc2cccc(-c3nc4ccc(-c5nc6ccc(N7CCN(C)CC7)cc6[nH]5)cc4[nH]3)c2)nn1)Cc1cn(CCCNC(=O)CCCOc2cccc(-c3nc4ccc(-c5nc6ccc(N7CCN(C)CC7)cc6[nH]5)cc4[nH]3)c2)nn1)C(=O)CNCc1cn(CCCNC(=O)CCCOc2cccc(-c3nc4ccc(-c5nc6ccc(N7CCN(C)CC7)cc6[nH]5)cc4[nH]3)c2)nn1 is reported as 46% (C2C12; flow cytometry; 5 µM, 14 h).
COc1ccc(-c2coc3c(CC=C(C)C)c(O)c(CC=C(C)C)c(O)c3c2=O)cc1O gave a viability of 114% (A549; cell growth or viability, MTT; 25 µg/mL).
For [64Cu+2].c1ccc(CNCc2ccc(CN3CCCN4CCNCCCN(CC4)CC3)cc2)nc1, the tumour-to-tissue ratio was 15.3 ± 7.01 (CXCR4; NOD/SCID mouse, U87 and U87-stb-CXCR4 xenografts; iv, 90 min, no blocking dose; relative to: U87 tumour over muscle).

Excerpt of the above:
COc1cc2c(cc1O)[C@]1(O)C(=O)c3c(O)cc4c(c3O[C@@H]1CO2)C=CC(C)(C)O4 has a viability of 108% (A549; cell growth or viability, MTT; 12.5 µg/mL).
Oc1cc2nc(c1)CNCc1cc(O)cc(n1)CNC2 has a viability of over 90% (HT-22; WST-8; 100 µM, 24 h pretreatment, with: H2O2 600 µM for 4 h; relative to: untreated).
